# Earlier results, collected from citations in different studies.
# Lines come from different studies, so protocols differ. ± marks the error that the study gave.
Compound,tested on,assay,system,conditions,how to read,measurement,result
COc1cc(F)c(C(C)C)cc1C1=C(CN2C(=O)O[C@H](c3cc(C(F)(F)F)cc(C(F)(F)F)c3)[C@@H]2C)CC(C)(C)CC1,,,rat,intravenous,,Vd,0.99 to 1.11 L/kg
COc1cc2c(NC3CCN(C)CC3)nc(N3CCCN(C)CC3)nc2cc1OCc1ccccc1,,,rat liver microsomes,,,intrinsic clearance,62 µL/min/mg protein
CCN(CC)C(=O)c1ccc(-c2c3ccc(=[N+](C)C)cc-3sc3cc4c(cc23)C(C)(C)CCN4C)s1,,,methanol,,,molar extinction coefficient,67700 M⁻¹ cm⁻¹
CCCCCCc1ccc(Oc2ccccc2C#N)c(O)c1,,,mouse,40 mg/kg,,clearance,180 mL/min/kg
Cc1ccccc1-c1cc(N2CC[N+](C)([O-])CC2)ncc1N(C)C(=O)C(C)(C)c1cc(C(F)(F)F)cc(C(F)(F)F)c1,,,"healthy volunteers, plasma","oral, 450 mg, single dose, given alone",,AUC(0-inf),2920 ng·h/mL
CC1CC(O)(C(C)O)C(=O)OC2CCN3CC=C(COC(=O)C1(C)O)C23 (centres unmarked),,,"lactating cow, milk","16 mg/kg, recovery corrected 20%",,concentration in milk,470 to 835 ng/mL
C=C[C@@H]1C[C@]1(NC(=O)[C@@H]1C[C@@H](Oc2ncc(OC)c3ccccc23)CN1C(=O)[C@@H](NC(=O)OC(C)(C)C)C(C)(C)C)C(=O)NS(=O)(=O)C1CC1,,,rat,"oral, 30 mg/kg",,oral bioavailability,19%
CCN(CC)c1ccc(-c2cc3c(s2)c(C(=O)OC)cc(=O)n3C)cc1,,,dichloromethane,10 µM,,absolute quantum yield,91%
C=CC(=O)Nc1cc(Nc2nccc(-c3cn(C)c4ccccc34)n2)c(OCC(F)(F)F)nc1N(C)CCN(C)C,,,human,80 mg,,Cmax at steady state,108 nM
Oc1cc2nc(c1)CNCCCNCCCNCCNCCCNCCCNC2,,,0.15 M NaClO4,"298.1 K, H5L5+ + H+ ⇄ H6L6+",,log K,4.14
O=C1CCC(=O)N([O-])CCCCCNC(=O)CCC(=O)N([O-])CCCCCOC(=O)CCC(=O)N([O-])CCCCCN1.[Fe+3],,refers to: Fe,,,,log stability constant,25.4 ± 0.1
O=C(CCCCC[N+]#[C][99Tc-5]([C]#[N+]CCCCCC(=O)N[C@H]1C(O)O[C@H](CO)[C@@H](O)[C@@H]1O)([C]#[N+]CCCCCC(=O)N[C@H]1C(O)O[C@H](CO)[C@@H](O)[C@@H]1O)([C]#[N+]CCCCCC(=O)N[C@H]1C(O)O[C@H](CO)[C@@H](O)[C@@H]1O)([C]#[N+]CCCCCC(=O)N[C@H]1C(O)O[C@H](CO)[C@@H](O)[C@@H]1O)[C]#[N+]CCCCCC(=O)N[C@H]1C(O)O[C@H](CO)[C@@H](O)[C@@H]1O)N[C@H]1C(O)O[C@H](CO)[C@@H](O)[C@@H]1O (some centres unmarked),,,"mouse, A549 tumour model, tumour",dose not given,,tumour uptake,1.48 ± 0.23 %ID/g
COCCOCCOCCOCCC(=O)NCc1cc(CNC(=O)CCOCCOCCOCCOC)cc(-c2cc3cc4nc(c(OC)c5[nH]c(cc6nc(cc2[nH]3)CC6(C)C)cc5-c2cc(CNC(=O)CCOCCOCCOCCOC)cc(CNC(=O)CCOCCOCCOCCOC)c2)CC4(C)C)c1,,,DMF,room temperature,,fluorescence quantum yield,0.2
CN1CCc2nc(C(=O)N[C@@H]3C[C@@H](C(=O)N(C)C)CC[C@@H]3NC(=O)C(=O)Nc3ccc(Cl)cn3)sc2C1,,,human,"dose not given, time not given, enzymatic hydrolysis",,share of clearance by hydrolysis,< 10%
Cc1ccc(O)c(CN(CCN(Cc2ccccn2)Cc2ccccn2)Cc2ccccn2)c1,,,,25 °C,,pKa1,4.11
CC(=O)O[C@H]1C2=C(C(=O)C(OC(=O)c3ccc(Cl)cc3)=C(C(C)C)C2=O)[C@@]2(C)CCCC(C)(C)[C@@H]2[C@@H]1O,HL-60,cell growth,,,,GI50,≤ 5 µM
O=C(O[C@@H]1Cc2c(O)cc(O)cc2O[C@@H]1c1cc(O)c(O)c(O)c1)c1cc(O)c(O)c(O)c1,,,,"pH 7.4, 37 °C",,chemical half-life,~45 min
CN1CCC(C)(C)c2cc3c(-c4ccc(C(=O)N5CCCCC5)s4)c4ccc(=[N+](C)C)cc-4sc3cc21,,,n-octanol/water,,,logP,1.7
O=C([O-])CN1CCN(CC(=O)[O-])CCN(Cc2cc(-c3ccc(OCC(=O)O)cc3)cc(C(=O)[O-])n2)CCN(CC(=O)[O-])CC1.[Eu+3],,,,,,Eu3+ luminescence lifetime,1.1 ms
C=C[C@@H]1C[C@]1(NC(=O)[C@@H]1C[C@@H](Oc2cc(-c3ccccc3)nc3cc(OC)ccc23)CN1C(=O)[C@@H](NC(=O)OC(C)(C)C)C(C)(C)C)C(=O)NS(=O)(=O)C1CC1,,,"dog, plasma","intravenous, dose not given",,half-life,36 min
Nc1ncnc2c1ncn2[C@H]1C[C@H](O)[C@@H](COP(=O)(O)OP(=O)(O)[C@@H](Cl)P(=O)(O)O)O1,,refers to: bisphosphonate leaving group,aqueous solution,measured experimentally,,pKa4,9.5
Cc1cc(C)c(-c2cc(C)c(OP(=O)([O-])OCCC[C@H](C(=O)[O-])N3CCN(CC(=O)[O-])CCN(Cc4cccc(C(=O)[O-])n4)CCN(CC(=O)[O-])CC3)cc2C)c(C)c1.[Gd+3],,,free complex,,,inner-sphere water number,0
O=C1C2=C(CCN(Cc3ccccc3)C2)N2CCN=C2N1Cc1ccc(C(F)(F)F)cc1,,,rats,"oral, 50 mg/kg",,half-life,259 min
CSCCN(CCSC)CCc1ccccn1,,,,mixed-mode protonation constant,,log KH1,7.33
COc1ccc2c(c1)C(=C1Nc3ccccc3C1=NOCC(O)CO)C(=O)N2 (centres unmarked),,,water,,,solubility,50 mg/mL
C=C[C@@H]1C[C@]1(NC(=O)[C@@H]1C[C@@H](Oc2nccc3ccccc23)CN1C(=O)[C@@H](NC(=O)OC(C)(C)C)C(C)(C)C)C(=O)NS(=O)(=O)C1CC1,,,rat,"oral, dose not given",,oral bioavailability,20%
CC(C)CC(CC(C)C)NC(=O)[C@H](Cc1cnc[nH]1)NC(=O)CNC(=O)[C@@H](NC(=O)[C@H](C)NC(=O)[C@H](Cc1c[nH]c2ccccc12)NC(=O)[C@H](CCC(N)=O)NC(=O)[C@@H](Cc1ccccc1)NC(=O)COCC(=O)Nc1ccc(CNC(=O)CN2CCN(CC(=O)O)CCN(CC(=O)O)CCN(CC(=O)O)CC2)cc1)C(C)C [gallium-68 labelled],,,"nude mice, PC-3 tumour xenograft, pancreas",250 pmol,,tissue uptake,~15 %ID/g
Cc1ccccc1-c1cc(N2CCNCC2)ncc1N(C)C(=O)C(C)(C)c1cc(C(F)(F)F)cc(C(F)(F)F)c1,,,"healthy volunteers, plasma","oral, 300 mg, fasted, fixed-dose combination, together with: palonosetron 0.5 mg",,AUC(0-inf),5890 ng·h/mL
O=S(=O)(c1ccccc1)N1CCCCC1,,,HCl buffer,"24 h, pH 1",,recovery,100%
CC(=O)c1cnc(N)nc1N1CC[C@H]1c1nn2ccc(Cl)c2c(=O)n1-c1ccccc1,,,female Wistar rat,"intravenous, 2.5 mg/kg",,plasma clearance,3.3 ± 0.1 mL/min/kg
COC(=O)c1cc(=O)n(C)c2cc(-c3ccc(OC)cc3)sc12,,,dichloromethane,10 µM,,emission maximum,472 nm
CC(=O)O[C@H]1C2=C(C(=O)C(O)=C(C(C)C)C2=O)[C@@]2(C)CCCC(C)(C)[C@@H]2[C@@H]1O,UACC-62,,,,,GI50,≤ 5 µM
CNCCCOc1cc(F)c(-c2c(Cl)nc3ncnn3c2N[C@@H](C)C(F)(F)F)c(F)c1,,,mouse,oral,,oral bioavailability,61%
C=C[C@@H]1C[C@]1(NC(=O)[C@@H]1C[C@@H](Oc2nccc3c(OC)cccc23)CN1C(=O)[C@@H](NC(=O)OC(C)(C)C)C(C)(C)C)C(=O)NS(=O)(=O)C1CC1,,,isolated perfused rabbit heart,10 µM,,heart rate change,-9%
[99Tc+].[C-]#[N+]CC(C)(C)OC.[C-]#[N+]CC(C)(C)OC.[C-]#[N+]CC(C)(C)OC.[C-]#[N+]CC(C)(C)OC.[C-]#[N+]CC(C)(C)OC.[C-]#[N+]CC(C)(C)OC,,,healthy human,"intravenous, 3.1 mCi, time not given",baseline: dose,biliary recovery,~22%
NCCCC[C@H](NC(=O)[C@@H]1CCCN1C(=O)[C@@H]1CSSC[C@H](NC(=O)CNC(=O)CNC(=O)CN)C(=O)N[C@@H](Cc2ccc(O)cc2)C(=O)N[C@@H](Cc2ccccc2)C(=O)N[C@@H](CCC(N)=O)C(=O)N[C@@H](CC(N)=O)C(=O)N1)C(=O)NCC(N)=O,,,,concentration not given,,distribution half-life,8 to 50 min
CCOc1ccc(NC(=S)N(CCO)Cc2cc3cc(C)cc(C)c3[nH]c2=O)cc1,,,mouse,oral,,oral bioavailability,21%
CN1CCN(c2cc(-c3ccccc3CO)c(N(C)C(=O)C(C)(C)c3cc(C(F)(F)F)cc(C(F)(F)F)c3)cn2)CC1,,,"healthy volunteers, plasma","oral, dose not given, netupitant-palonosetron, fed",,Cmax,73.1 ng/mL
CC(=O)N[C@H](CC(=O)O)C(=O)N[C@H](Cc1c[nH]c2ccccc12)C(=O)N[C@H](Cc1ccccc1)C(=O)N[C@H](CCCCN)C(=O)N[C@H](C)C(=O)N[C@H](Cc1ccccc1)C(=O)N[C@H](Cc1ccc(O)cc1)C(=O)N[C@H](CC(=O)O)C(=O)N[C@H](CCCCN)C(=O)N[C@@H](C(=O)N[C@H](C)C(=O)N[C@H](CCC(=O)O)C(=O)N[C@H](CCCCN)C(=O)N[C@H](Cc1ccccc1)C(=O)N[C@H](CCCCN)C(=O)N[C@H](CCC(=O)O)C(=O)N[C@H](C)C(=O)N[C@H](Cc1ccccc1)C(N)=O)C(C)C,,,"apoE-knockout mouse, plasma",up to 45 mg/kg,baseline: subcutaneous over oral,plasma level ratio,~1000 fold
CC(C)Sc1cccc(O)c(=O)c1O,,,,,,pKa2,> 12
CC(=O)N1CCC(NC(=O)NC23CC4CC(C)(CC(C2)c2ccccc24)C3)CC1,,,human liver microsomes,60 min,,remaining compound,1%

# A few entries again:
Compound,tested on,assay,system,conditions,how to read,measurement,result
C=C[C@@H]1C[C@]1(NC(=O)[C@@H]1C[C@@H](Oc2nccc3ccccc23)CN1C(=O)[C@@H](NC(=O)OC(C)(C)C)C(C)(C)C)C(=O)NS(=O)(=O)C1CC1,,,rat,"oral, dose not given",,oral bioavailability,20%
O=C(CCCCC[N+]#[C][99Tc-5]([C]#[N+]CCCCCC(=O)N[C@H]1C(O)O[C@H](CO)[C@@H](O)[C@@H]1O)([C]#[N+]CCCCCC(=O)N[C@H]1C(O)O[C@H](CO)[C@@H](O)[C@@H]1O)([C]#[N+]CCCCCC(=O)N[C@H]1C(O)O[C@H](CO)[C@@H](O)[C@@H]1O)([C]#[N+]CCCCCC(=O)N[C@H]1C(O)O[C@H](CO)[C@@H](O)[C@@H]1O)[C]#[N+]CCCCCC(=O)N[C@H]1C(O)O[C@H](CO)[C@@H](O)[C@@H]1O)N[C@H]1C(O)O[C@H](CO)[C@@H](O)[C@@H]1O (some centres unmarked),,,"mouse, A549 tumour model, tumour",dose not given,,tumour uptake,1.48 ± 0.23 %ID/g
CN1CCc2nc(C(=O)N[C@@H]3C[C@@H](C(=O)N(C)C)CC[C@@H]3NC(=O)C(=O)Nc3ccc(Cl)cn3)sc2C1,,,human,"dose not given, time not given, enzymatic hydrolysis",,share of clearance by hydrolysis,< 10%
Cc1ccccc1-c1cc(N2CC[N+](C)([O-])CC2)ncc1N(C)C(=O)C(C)(C)c1cc(C(F)(F)F)cc(C(F)(F)F)c1,,,"healthy volunteers, plasma","oral, 450 mg, single dose, given alone",,AUC(0-inf),2920 ng·h/mL
COC(=O)c1cc(=O)n(C)c2cc(-c3ccc(OC)cc3)sc12,,,dichloromethane,10 µM,,emission maximum,472 nm
